Published values pooled from the literature.
Compare with care: the assays were run in different laboratories.
Organism: Pseudomonas aeruginosa

| SMILES | assay | system | setting | MIC |
| --- | --- | --- | --- | --- |
| CN[C@H](CC(C)C)C(=O)N[C@H]1C(=O)N[C@@H](CC(N)=O)C(=O)N[C@H]2C(=O)N[C@H]3C(=O)N[C@H](C(=O)N[C@H](C(=O)NCC(N)=O)c4cc(O)cc(O)c4-c4cc3ccc4O)[C@H](O)c3ccc(c(Cl)c3)Oc3cc2cc(c3O[C@@H]2O[C@H](CO)[C@@H](O)[C@H](O)[C@H]2O[C@H]2C[C@](C)(NCc3ccc(OCc4cn(CC(=O)N[C@H](C(=O)N[C@@H](CCN)C(=O)N[C@H]5CCNC(=O)[C@H]([C@@H](C)O)NC(=O)[C@H](CCN)NC(=O)[C@H](CCN)NC(=O)[C@H](CC(C)C)NC(=O)[C@@H](CC(C)C)NC(=O)[C@H](CCN)NC5=O)[C@@H](C)O)nn4)c(OC)c3)[C@H](O)[C@H](C)O2)Oc2ccc(cc2Cl)[C@H]1O | broth microdilution | ATCC 17978, cation-adjusted Mueller-Hinton broth | – | 48 µM |
| CCCC[C@H](NC(=O)[C@H](Cc1ccc(O)cc1)NC(=O)[C@@H]1CCCN1C(=O)[C@@H]1CCCN1C(=O)[C@H](CCCCN)NC(=O)[C@H](CC(=O)O)NC(=O)[C@@H](N)C(C)C)C(=O)N1CCC[C@H]1C(=O)N[C@@H](CCCNC(=N)N)C(=O)N1CCC[C@H]1C(=O)N[C@@H](CCCNC(=N)N)C(=O)N1CCC[C@H]1C(=O)N1CCC[C@H]1C(=O)N[C@@H](CCCNC(=N)N)C(=O)N[C@H](CCCNC(=N)N)C(=O)N[C@H](C(=O)N[C@@H](Cc1ccc(O)cc1)C(=O)N[C@@H](CC(N)=O)C(=O)N[C@H](CCCNC(=N)N)C(N)=O)[C@@H](C)CC | broth microdilution | DSM 1117 | 18 h, 37 °C, 25% MHB2 | 128 µg/mL |
| CC(=O)N[C@H](Cc1ccc(F)cc1)C(=O)N[C@@H](CCN)C(=O)N[C@H](C(=O)N[C@@H](CCN)C(=O)N[C@H]1CCNC(=O)[C@H]([C@@H](C)O)NC(=O)[C@H](CCN)NC(=O)[C@H](CCN)NC(=O)[C@H](CC(C)C)NC(=O)[C@@H](Cc2ccccc2)NC(=O)[C@H](CCN)NC1=O)[C@@H](C)O | broth microdilution | colistin-resistant isolates | – | > 64 µg/mL |
| CC[C@H](C)[C@@H]1NC(=O)[C@H](C(C)C)NC(=O)[C@H](C(C)C)NC(=O)[C@H](CC(C)C)NC(=O)C[C@@H](C(=O)N[C@@H](Cc2c[nH]c3ccccc23)C(=O)N[C@@H](CC(N)=O)C(=O)N[C@@H](C)C(=O)N2CCC[C@H]2C(=O)NCC(=O)N[C@@H](Cc2c[nH]c3ccccc23)C(=O)N[C@@H](Cc2ccccc2)C(=O)O)NC(=O)[C@H](C)NC(=O)[C@H](CCC(N)=O)NC(=O)[C@H](C(C)C)NC1=O | – | 14 | – | > 32 µg/mL |
| CC[C@H](C)[C@H](NC(=O)[C@@H](CCCNC(=N)N)NC(=O)[C@H](CCCNC(=N)N)NC(=O)[C@H](CC(N)=O)NC(=O)[C@H](Cc1c[nH]c2ccccc12)NC(=O)[C@H](CCCNC(=N)N)NC(=O)[C@@H]1CCCN1C(=O)[C@H](CCCNC(=N)N)NC(=O)[C@@H]1CCCN1C(=O)[C@H](CC(C)C)NC(=O)[C@H](Cc1ccc(O)cc1)NC(=O)[C@@H]1CCCN1C(=O)[C@@H]1CCCN1C(=O)[C@H](CCCCN)NC(=O)[C@H](CC(=O)O)NC(=O)[C@@H](N)C(C)C)C(=O)N[C@@H](Cc1ccc(O)cc1)C(=O)N[C@@H](CC(N)=O)C(=O)N[C@H](CCCNC(=N)N)C(N)=O | broth microdilution | DSM 1117 | 18 h, 37 °C, 25% MHB2 | 128 µg/mL |
| CCCCCCCC(=O)N[C@@H](CCN)C(=O)N[C@H](C(=O)N[C@@H](CCN)C(=O)N[C@H]1CCNC(=O)[C@H]([C@@H](C)O)NC(=O)[C@H](CCN)NC(=O)[C@H](CCN)NC(=O)[C@H](CC(C)C)NC(=O)[C@@H](Cc2cccc(F)c2)NC(=O)[C@H](CCN)NC1=O)[C@@H](C)O | broth microdilution | PAO1, colistin-susceptible | – | 0.25 to 0.5 µg/mL |
| CC(C)C[C@@H]1NC(=O)[C@@H](CC(C)C)NC(=O)[C@H](CCN)NC(=O)[C@@H](NC(=O)[C@H](CCN)NC(=O)[C@@H](NC(=O)CCOCCOCCOCCN=[N+]=[N-])[C@@H](C)O)CCNC(=O)[C@H]([C@@H](C)O)NC(=O)[C@H](CCN)NC(=O)[C@H](CCN)NC1=O | broth microdilution | ATCC 25922, cation-adjusted Mueller-Hinton broth | – | 111 µM |
| CC[C@H](C)[C@H](NC(=O)[C@@H](CCCNC(=N)N)NC(=O)[C@H](CCCNC(=N)N)NC(=O)[C@@H]1CCCN1C(=O)[C@@H]1CCCN1C(=O)[C@H](CCCNC(=N)N)NC(=O)[C@@H]1CCCN1C(=O)[C@H](CCCNC(=N)N)NC(=O)[C@@H]1CCCN1C(=O)[C@H](CC(C)C)NC(=O)[C@H](Cc1cc(I)c(O)c(I)c1)NC(=O)[C@@H]1CCCN1C(=O)[C@@H]1CCCN1C(=O)[C@H](CCCCN)NC(=O)[C@H](CC(=O)O)NC(=O)[C@@H](N)C(C)C)C(=O)N[C@@H](Cc1ccc(O)cc1)C(=O)N[C@@H](CC(N)=O)C(=O)N[C@H](CCCNC(=N)N)C(N)=O | broth microdilution | DSM 1117 | 18 h, 37 °C, 25% MHB2 | > 128 µg/mL |
| CC(C)C[C@@H]1NC(=O)[C@H](CCCCN)NC(=O)C(N)CCC=CCCC(C(N)=O)NC(=O)[C@H](CCCCN)NC(=O)[C@H](CC(C)C)NC(=O)[C@H](CCCCN)NC(=O)C2CCC=CCCC(NC(=O)[C@H](CCCCN)NC1=O)C(=O)N[C@@H](CCCCN)C(=O)N1CCC[C@@H]1C(=O)NCC(=O)N[C@@H](CCCCN)C(=O)N2 (stereo partly drawn) | broth microdilution | ATCC 9027, Mueller-Hinton broth | 18 h, 37 °C | 32 µM |
| CCn1ccn(CC)c1=[Se] | broth microdilution | carbapenem-resistant BAA-2108 | 24 h | > 40 µM |
| C#CCOc1ccc(CN[C@@]2(C)C[C@H](O[C@H]3[C@H](Oc4c5cc6cc4Oc4ccc(cc4Cl)[C@@H](O)[C@@H](NC(=O)[C@@H](CC(C)C)NC)C(=O)N[C@@H](CC(N)=O)C(=O)N[C@H]6C(=O)N[C@H]4C(=O)N[C@H](C(=O)N[C@H](C(=O)NCC(N)=O)c6cc(O)cc(O)c6-c6cc4ccc6O)[C@H](O)c4ccc(c(Cl)c4)O5)O[C@H](CO)[C@@H](O)[C@@H]3O)O[C@@H](C)[C@H]2O)cc1OC | broth microdilution | ATCC 35218, cation-adjusted Mueller-Hinton broth | – | 19 µM |
| CN[C@@H]1[C@H](O)[C@H](NC)[C@H]2O[C@]3(O)[C@H](O[C@@H]2[C@H]1O)O[C@H](C)C[C@H]3NC(=O)Cc1ccc(Cl)cn1 | microbial growth, broth dilution | PAO1 | – | > 200 µg/mL |

Excerpt of the above:
| SMILES | assay | system | setting | MIC |
| --- | --- | --- | --- | --- |
| CN[C@H](CC(C)C)C(=O)N[C@H]1C(=O)N[C@@H](CC(N)=O)C(=O)N[C@H]2C(=O)N[C@H]3C(=O)N[C@H](C(=O)N[C@H](C(=O)NCC(N)=O)c4cc(O)cc(O)c4-c4cc3ccc4O)[C@H](O)c3ccc(c(Cl)c3)Oc3cc2cc(c3O[C@@H]2O[C@H](CO)[C@@H](O)[C@H](O)[C@H]2O[C@H]2C[C@](C)(NCc3ccc(OCc4cn(CC(=O)N[C@H](C(=O)N[C@@H](CCN)C(=O)N[C@H]5CCNC(=O)[C@H]([C@@H](C)O)NC(=O)[C@H](CCN)NC(=O)[C@H](CCN)NC(=O)[C@H](CC(C)C)NC(=O)[C@@H](CC(C)C)NC(=O)[C@H](CCN)NC5=O)[C@@H](C)O)nn4)c(OC)c3)[C@H](O)[C@H](C)O2)Oc2ccc(cc2Cl)[C@H]1O | broth microdilution | ATCC 17978, cation-adjusted Mueller-Hinton broth | – | 48 µM |
| CCCC[C@H](NC(=O)[C@H](Cc1ccc(O)cc1)NC(=O)[C@@H]1CCCN1C(=O)[C@@H]1CCCN1C(=O)[C@H](CCCCN)NC(=O)[C@H](CC(=O)O)NC(=O)[C@@H](N)C(C)C)C(=O)N1CCC[C@H]1C(=O)N[C@@H](CCCNC(=N)N)C(=O)N1CCC[C@H]1C(=O)N[C@@H](CCCNC(=N)N)C(=O)N1CCC[C@H]1C(=O)N1CCC[C@H]1C(=O)N[C@@H](CCCNC(=N)N)C(=O)N[C@H](CCCNC(=N)N)C(=O)N[C@H](C(=O)N[C@@H](Cc1ccc(O)cc1)C(=O)N[C@@H](CC(N)=O)C(=O)N[C@H](CCCNC(=N)N)C(N)=O)[C@@H](C)CC | broth microdilution | DSM 1117 | 18 h, 37 °C, 25% MHB2 | 128 µg/mL |
